Measurements pooled from the literature.
Compare with care: the assays were run in different laboratories. Several values in a cell are separate wells, animals, samples, runs or records. ± gives the spread as reported. In brackets after ≈: the same amount, converted by molar mass.

The inhibition of `CCOC(=O)C1(Cc2cccc(C)c2)Oc2cc(F)ccc2N(Cc2cccc(C)c2)C1=O` (stereo not drawn) is reported as 56.2 ± 3.04% (Eclipta prostrata; fresh weight, greenhouse postemergence; postemergence, 150 g ai/ha, 21 days).
With `NCCCO.O=C(O)C(Cl)Cl` the herbicidal inhibition was 0% (Eleusine indica; 15 mg/mL, 21 days, pre-emergence, greenhouse).
`O=C1NC2(CC2)COc2ncc(F)cc2[C@H]2COCCN2c2ccn3ncc1c3n2`: “pancreatic amylase activity” 1980 ± 233 U/L (Sprague-Dawley rat, male, serum; oral, 20 mg/kg/day, 4 weeks daily, end of recovery period).
`COc1ccccc1-c1n[nH]c2nc(N[C@H]3CC[C@H](NS(=O)(=O)CC(C)C)CC3)ncc12` gave a relative abundance of 0.85 (bead binding, competition bead pull-down, refers to: LINJ.33.1660; Leishmania donovani extract; 10 µM; baseline: vehicle).
The MIC90 of `C[N+]1=C2C(c3ccc([N+](=O)[O-])cc3)=[N+]([O-])c3ccccc3N2CCC1` is reported as 1 µg/mL (Prevotella spp.; bacterial growth).
`COc1cc(C(SC(C)C)SC(C)C)ccc1OCCNS(=O)(=O)c1ccc(Cl)cc1` gave an EC50 of 57.7 ± 1.4 µg/mL (Tobacco mosaic virus; inactivation activity; plant in vivo).
The fold change of `FC(F)(F)c1cccc(CNc2nc(NC3CCN(Cc4ccccc4)CC3)c3nc[nH]c3n2)c1` is reported as 4.43 (Cryptococcus neoformans; mRNA level, RNA-seq, refers to: MIOX CNAG_06623; 48 µg/mL, 3 h; baseline: untreated).
`CC[C@H](C)CCCCC(=O)N[C@@H](CCN)C(=O)N[C@H](C(=O)N[C@@H](CCN)C(=O)N[C@H]1CCNC(=O)[C@H]([C@@H](C)O)NC(=O)[C@H](CCN)NC(=O)[C@H](CCN)NC(=O)[C@H](CC(C)C)NC(=O)[C@@H](CC(C)C)NC(=O)[C@H](CCN)NC1=O)[C@@H](C)O` — result for “MIC fold change”: 0.947 (Escherichia coli; daily serial passaging; ATCC 8739; highest sub-MIC, 21 days; baseline: initial MIC).
Under “EC50 fold shift”, `Cc1cc(C(=O)Nc2nc3cccc(C)c3n2[C@H]2CCCCN(C(=O)/C=C/CN(C)C)C2)ccn1` is recorded as 0.76 fold and 1.25 fold (Trypanosoma brucei; cell growth, Alamar Blue; 2T1 overexpressing Tb927.7.7360; baseline: parental 2T1).
The EC50 of `CCCSC(SCCC)c1ccc(OCCNS(=O)(=O)c2cccc(C(F)(F)F)c2)c(OC)c1` is reported as 287.7 ± 1.6 µg/mL (Tobacco mosaic virus; protective activity; plant in vivo).
`CCOC(=O)C1(CC#N)Oc2cc(F)ccc2N(CC#N)C1=O` (stereo not drawn) has an inhibition of 61.3 ± 2.84% (Eclipta prostrata; fresh weight, greenhouse postemergence; postemergence, 150 g ai/ha, 21 days).
`CC(O)CN(CC(C)O)CC(C)O.O=C(O)C(Cl)Cl` (stereo not drawn) has a herbicidal inhibition of -36% (Eleusine indica; 15 mg/mL, 21 days, post-emergence, greenhouse).
`C[C@H](NC(=O)[C@@H](O)c1cc(F)cc(F)c1)C(=O)N[C@@H]1C(=O)N(C)c2ccccc2-c2ccccc21` gave an EC50 of 3.2 nM (dengue virus type 2; viral replication, Renilla luciferase reporter virus; MEF; 48 h).
`CCCSC(SCCC)c1ccc(OCCNS(=O)(=O)c2ccc(Cl)cc2)c(OC)c1` gave an EC50 of 464 ± 4.8 µg/mL (Tobacco mosaic virus; curative activity; plant in vivo).
For `Cc1ccc(N2CC3CC(C2)N3C)cc1C(=O)NC1(c2ccc3c4c(cccc24)C(=O)N3C)CC1`, the inhibition was 99.4% (Human coronavirus NL63; viral replication; 20 µM).
`CCCSC(SCCC)c1ccc(OCCNS(=O)(=O)c2cccc(Br)c2)c(Cl)c1` gave an EC50 of 244 ± 2.5 µg/mL (Tobacco mosaic virus; curative activity; plant in vivo).
`C[C@H]1O[C@@H](O[C@H]2CC[C@@]3(C)[C@H](C2)C[C@@H]2O[C@]24[C@@H]3C[C@@H](O)[C@]2(C)[C@@H](C3=CC(=O)OC3)CC[C@@]24O)[C@H](O)[C@H](O)[C@@H]1O[C@@H]1O[C@H](CO)[C@@H](O)[C@H](O)[C@H]1O`: “time to adulthood” 23.4 days (Oncopeltus fasciatus; diet, concentration not given).
With `CCOC(=O)C1(Cc2cc(F)c(F)c(F)c2)Oc2cc(F)ccc2N(Cc2cc(F)c(F)c(F)c2)C1=O` (stereo not drawn) the inhibition was 49.1 ± 1.47% (Echinochloa crus-galli; fresh weight, greenhouse postemergence; postemergence, 150 g ai/ha, 21 days).
The MIC50 of `[O-][N+]1=C(c2ccccc2)C2=NCCCN2c2ncccc21` is reported as ≤ 0.06 µg/mL (Prevotella spp.; bacterial growth).
`COc1cc(C(SC(C)C)SC(C)C)ccc1OCCNS(=O)(=O)c1ccc(C)cc1` has an EC50 of 356.8 ± 3.5 µg/mL (Tobacco mosaic virus; curative activity; plant in vivo).
With `CCOC(=O)C1(Cc2ccccc2F)Oc2cc(F)ccc2N(Cc2ccccc2F)C1=O` (stereo not drawn) the inhibition was 48.8 ± 2.1% (Eclipta prostrata; fresh weight, greenhouse postemergence; postemergence, 150 g ai/ha, 21 days).
`CCCSC(SCCC)c1ccc(OCCNS(=O)(=O)c2ccc(Br)cc2)c(OC)c1` has an EC50 of > 2500 µg/mL (tobacco mosaic virus; curative activity; in vivo plant).
With `CCOC(=O)C1(C)Oc2cc(F)ccc2N(C)C1=O` (stereo not drawn) the inhibition was 55.6 ± 2.06% (Echinochloa crus-galli; fresh weight, greenhouse postemergence; postemergence, 150 g ai/ha, 21 days).
The EC50 of `CCCSC(SCCC)c1ccc(OCCNS(=O)(=O)c2ccc(C)cc2)cc1` is reported as 597.1 ± 1.7 µg/mL (Tobacco mosaic virus; protective activity; plant in vivo).
`O=[N+]([O-])c1ccc(C2=[N+]([O-])c3ccccc3N3CCCN=C23)cc1` gave an MIC90 of ≤ 0.06 µg/mL (Parabacteroides distasonis and Bacteroides spp.; bacterial growth).
With `Cc1cc(N2CCC(C#N)(C3(C)CC3)C2=O)cc(C(=O)NCc2cc(F)cc(-c3cnn(C)c3)c2)n1` (racemic) the IC50 was 16 nM (Plasmodium falciparum; parasite growth, [3H]hypoxanthine incorporation; Dd2 Pfeef2 mutant).
The log GI50 of `CC(C)(C)C(=O)OCOP(=O)(OCOC(=O)C(C)(C)C)C1CCCN(O)C1=O` (stereo not drawn) is reported as -6.35 log M (KM12).
`CN(C(=O)c1ccn2ncc(-c3ccc(C(N)=O)cc3)c2c1)c1ccc(C#N)cn1` — result for “faecal Nluc luminescence”: 49 a.u. and 124 a.u. and 72 a.u. and 81 a.u. and 426 a.u. (Cryptosporidium parvum; UGA1 Nluc, IFN-gamma knockout C57BL/6 mice, faeces; oral, 10 mg/kg daily, 120 h post infection, treatment days 3-9; higher means more parasites).
`COc1ccc(C2=[N+]([O-])c3ccccc3N3CC(C)(C)CN=C23)cc1` gave an MIC90 of 0.5 µg/mL (≈ 1.49 µM) (Prevotella spp.; bacterial growth).
`CC(C)C[C@H](NC(=O)[C@H](Cc1ccccc1)NC(=O)[C@H](CCC(N)=O)NC(=O)[C@H](Cc1ccc(O)cc1)NC(=O)[C@H](CCCCN)NC(=O)[C@@H]1CCCN1C(=O)[C@H](CCCNC(=N)N)NC(=O)[C@H](CCC(N)=O)NC(=O)[C@H](Cc1c[nH]c2ccccc12)NC(=O)[C@H](CS)NC(=O)[C@H](Cc1c[nH]c2ccccc12)NC(=O)[C@H](Cc1ccccc1)NC(=O)[C@H](CCCNC(=N)N)NC(=O)[C@H](CCCCN)NC(=O)[C@H](CCCCN)NC(=O)[C@H](CCCCN)NC(=O)[C@@H](NC(=O)[C@@H](NC(=O)[C@H](CC(C)C)NC(=O)[C@@H](N)CO)C(C)C)[C@@H](C)O)C(=O)O` has an MBC of 8 µg/mL (≈ 3.03 µM) (Staphylococcus haemolyticus).
With `CC[C@H](C)[C@H](NC(=O)[C@H](C)NC(=O)CNC(=O)[C@H](C)NC(=O)[C@H](CCCCN)NC(=O)[C@H](CO)NC(=O)[C@H](C)NC(=O)[C@H](CCSC)NC(=O)CN)C(=O)N[C@@H](C)C(=O)NCC(=O)N[C@@H](CCCCN)C(=O)N[C@H](C(=O)N[C@@H](C)C(=O)N[C@@H](CCCCN)C(=O)N[C@H](C(=O)N[C@@H](C)C(=O)N[C@@H](CC(C)C)C(=O)N[C@@H](CCCCN)C(=O)N[C@@H](C)C(=O)N[C@@H](CC(C)C)C(N)=O)C(C)C)[C@@H](C)CC` the combination index was 0.84 (Escherichia coli; 3538 ampicillin resistant; Loewe additivity, added: ampicillin).
`COc1cc(C(SC(C)C)SC(C)C)ccc1OCCNS(=O)(=O)c1ccccc1C(F)(F)F` has an EC50 of 1063 ± 1.8 µg/mL (Tobacco mosaic virus; protective activity; plant in vivo).
With `OB(O)c1ccc(C(F)(F)F)s1` the growth was 59.4% and 59.3% and 64.2% and 48.8% and 108% and 57% (Staphylococcus aureus; OD600; USA300 fphE::Tn transposon mutant; 50 µM; baseline: wild type).
`CC[C@H](C)[C@H](NC(=O)[C@H](CCCNC(=N)N)NC(=O)[C@H](CO)NC(=O)[C@H](Cc1ccc(O)cc1)NC(=O)[C@@H](NC(=O)[C@@H](NC(=O)[C@H](C)NC(=O)CNC(=O)[C@H](CCCCN)NC(=O)[C@H](CCCCN)NC(=O)CCNC(=O)CCCCCNC(=O)[C@H](CCCNC(=N)N)NC(=O)CCCCCNC(=O)[C@H](CCCNC(=N)N)NC(=O)[C@H](CCCNC(=N)N)NC(=O)CCCCCNC(=O)[C@H](CCCNC(=N)N)NC(=O)[C@H](CCCNC(=N)N)NC(=O)CCCCCNC(=O)[C@H](CCCNC(=N)N)NC(=O)[C@H](CCCNC(=N)N)NC(=O)CCCCCNC(=O)[C@@H](N)CCCNC(=N)N)C(C)C)[C@@H](C)O)C(=O)N[C@@H](CO)C(=O)NCC(=O)N[C@@H](CCC(N)=O)C(=O)N[C@@H](Cc1ccc(O)cc1)C(=O)N[C@@H](CCCCN)C(=O)O` gave an MIC of 48 µM (≈ 171 µg/mL) (Escherichia coli; ATCC 25922, Mueller-Hinton broth; added: CaCl2 2 mM).
`CCOC(=O)C1(Cc2ccccc2)Oc2cc(OC)ccc2N(Cc2ccccc2)C1=O` (stereo not drawn) has an inhibition of 43 ± 1.79% (Echinochloa crus-galli; fresh weight, greenhouse postemergence; postemergence, 150 g ai/ha, 21 days).
With `C[N+]1=C2C(c3ccccc3)=[N+]([O-])c3ccccc3N2CCC1` the MIC50 was 2 µg/mL (Parabacteroides distasonis and Bacteroides spp.; bacterial growth).
`COc1ccccc1-c1n[nH]c2nc(NC3CCN(C(=O)Cc4ccc(F)cc4F)CC3)ncc12` has a relative abundance of 0.91 (bead binding, competition bead pull-down, refers to: LMJF.34.3670; Leishmania donovani extract; 10 µM; baseline: vehicle).
`C[N+]1=C2C(c3ccc(Cl)cc3)=[N+]([O-])c3ccccc3N2CCC1` gave an MIC90 of 8 µg/mL (Prevotella spp.; bacterial growth).
`CCOC(=O)C1(Cc2ccc(C)cc2)Oc2cc(F)ccc2N(Cc2ccc(C)cc2)C1=O` (stereo not drawn) has an inhibition of 58.9 ± 3.35% (Eclipta prostrata; fresh weight, greenhouse postemergence; postemergence, 150 g ai/ha, 21 days).
`CCc1nn(C)c2nc(-c3ccc(C(=O)O)cc3)nc(NCc3ccccc3)c12` has a parasite number of 101% and 109% and 96.8% and 93.3% (Cryptosporidium parvum; HCT-8; 9 x EC90, 0 h; baseline: DMSO control).
For `[O-][N+]1=C(c2ccc(Cl)cc2)C2=NCCCCN2c2ccccc21`, the MIC90 was 2 µg/mL (≈ 6.14 µM) (Parabacteroides distasonis and Bacteroides spp.; bacterial growth).
`CN[C@H](CC(C)C)C(=O)N[C@H]1C(=O)N[C@@H](CC(N)=O)C(=O)N[C@H]2C(=N)N[C@H]3C(=O)N[C@H](C(=O)N[C@H](C(=O)O)c4cc(O)cc(O)c4-c4cc3ccc4O)[C@H](O)c3ccc(c(Cl)c3)Oc3cc2cc(c3O[C@@H]2O[C@H](CO)[C@@H](O)[C@H](O)[C@H]2O[C@H]2C[C@](C)(N)[C@H](O)[C@H](C)O2)Oc2ccc(cc2Cl)[C@H]1O` gave an accumulation increase of 4 to 6 fold (Enterococcus faecium; ATCC BAA-2317 VanA; 10 µg/mL; baseline: no antibiotic).

For quick reference, copied from above:
`C[C@H]1O[C@@H](O[C@H]2CC[C@@]3(C)[C@H](C2)C[C@@H]2O[C@]24[C@@H]3C[C@@H](O)[C@]2(C)[C@@H](C3=CC(=O)OC3)CC[C@@]24O)[C@H](O)[C@H](O)[C@@H]1O[C@@H]1O[C@H](CO)[C@@H](O)[C@H](O)[C@H]1O`: “time to adulthood” 23.4 days (Oncopeltus fasciatus; diet, concentration not given).
With `CCOC(=O)C1(Cc2cc(F)c(F)c(F)c2)Oc2cc(F)ccc2N(Cc2cc(F)c(F)c(F)c2)C1=O` (stereo not drawn) the inhibition was 49.1 ± 1.47% (Echinochloa crus-galli; fresh weight, greenhouse postemergence; postemergence, 150 g ai/ha, 21 days).
The MIC50 of `[O-][N+]1=C(c2ccccc2)C2=NCCCN2c2ncccc21` is reported as ≤ 0.06 µg/mL (Prevotella spp.; bacterial growth).
`COc1cc(C(SC(C)C)SC(C)C)ccc1OCCNS(=O)(=O)c1ccc(C)cc1` has an EC50 of 356.8 ± 3.5 µg/mL (Tobacco mosaic virus; curative activity; plant in vivo).
With `CCOC(=O)C1(Cc2ccccc2F)Oc2cc(F)ccc2N(Cc2ccccc2F)C1=O` (stereo not drawn) the inhibition was 48.8 ± 2.1% (Eclipta prostrata; fresh weight, greenhouse postemergence; postemergence, 150 g ai/ha, 21 days).
`CCCSC(SCCC)c1ccc(OCCNS(=O)(=O)c2ccc(Br)cc2)c(OC)c1` has an EC50 of > 2500 µg/mL (tobacco mosaic virus; curative activity; in vivo plant).
With `CCOC(=O)C1(C)Oc2cc(F)ccc2N(C)C1=O` (stereo not drawn) the inhibition was 55.6 ± 2.06% (Echinochloa crus-galli; fresh weight, greenhouse postemergence; postemergence, 150 g ai/ha, 21 days).
